Measurements from different studies.
Compare with care: the assays were run in different laboratories. ± gives the spread as reported.
UniProt P45983, sequence (whole entry, looked up): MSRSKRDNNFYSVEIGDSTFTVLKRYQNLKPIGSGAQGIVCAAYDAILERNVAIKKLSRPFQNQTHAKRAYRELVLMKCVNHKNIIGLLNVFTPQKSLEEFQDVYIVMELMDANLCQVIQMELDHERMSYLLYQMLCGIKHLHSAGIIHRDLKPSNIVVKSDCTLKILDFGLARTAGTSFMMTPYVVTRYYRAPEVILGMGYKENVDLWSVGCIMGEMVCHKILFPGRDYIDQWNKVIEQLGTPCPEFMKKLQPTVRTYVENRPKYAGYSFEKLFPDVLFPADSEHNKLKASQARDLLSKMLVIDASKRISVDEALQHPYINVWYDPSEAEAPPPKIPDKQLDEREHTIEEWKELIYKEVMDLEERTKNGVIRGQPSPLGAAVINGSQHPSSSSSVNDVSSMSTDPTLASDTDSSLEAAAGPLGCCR
UniProt P31641, sequence (whole entry, unmodified, looked up): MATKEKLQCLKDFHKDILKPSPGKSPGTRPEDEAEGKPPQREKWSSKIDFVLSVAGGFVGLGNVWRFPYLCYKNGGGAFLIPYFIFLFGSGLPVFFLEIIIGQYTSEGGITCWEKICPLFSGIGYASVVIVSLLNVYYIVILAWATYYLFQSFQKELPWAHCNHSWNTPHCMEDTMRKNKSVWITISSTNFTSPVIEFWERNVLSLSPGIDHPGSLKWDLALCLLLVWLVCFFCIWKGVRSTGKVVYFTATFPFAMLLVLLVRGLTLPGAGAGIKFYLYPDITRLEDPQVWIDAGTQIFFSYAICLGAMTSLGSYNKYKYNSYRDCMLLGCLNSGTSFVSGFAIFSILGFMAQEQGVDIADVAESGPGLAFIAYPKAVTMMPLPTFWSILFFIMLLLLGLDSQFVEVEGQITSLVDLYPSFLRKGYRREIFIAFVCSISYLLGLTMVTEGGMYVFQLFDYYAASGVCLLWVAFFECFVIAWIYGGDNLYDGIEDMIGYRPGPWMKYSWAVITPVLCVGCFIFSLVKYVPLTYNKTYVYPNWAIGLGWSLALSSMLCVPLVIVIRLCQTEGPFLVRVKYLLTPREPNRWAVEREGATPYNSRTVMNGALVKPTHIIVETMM
UniProt P15170, sequence (whole entry, looked up): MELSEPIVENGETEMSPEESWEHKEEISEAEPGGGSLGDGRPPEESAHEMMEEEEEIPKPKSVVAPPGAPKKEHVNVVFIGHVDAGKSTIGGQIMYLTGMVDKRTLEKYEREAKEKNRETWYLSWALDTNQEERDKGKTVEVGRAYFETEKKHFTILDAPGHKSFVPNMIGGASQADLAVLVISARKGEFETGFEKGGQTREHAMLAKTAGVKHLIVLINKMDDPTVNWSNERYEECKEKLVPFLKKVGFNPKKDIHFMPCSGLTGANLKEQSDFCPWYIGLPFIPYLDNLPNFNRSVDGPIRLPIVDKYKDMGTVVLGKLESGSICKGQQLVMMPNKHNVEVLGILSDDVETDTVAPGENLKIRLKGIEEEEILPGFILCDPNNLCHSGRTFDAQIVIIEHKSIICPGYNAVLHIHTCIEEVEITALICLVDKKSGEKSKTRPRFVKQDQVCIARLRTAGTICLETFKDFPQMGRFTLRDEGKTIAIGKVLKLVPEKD
UniProt Q92633, sequence (whole entry, unmodified, looked up): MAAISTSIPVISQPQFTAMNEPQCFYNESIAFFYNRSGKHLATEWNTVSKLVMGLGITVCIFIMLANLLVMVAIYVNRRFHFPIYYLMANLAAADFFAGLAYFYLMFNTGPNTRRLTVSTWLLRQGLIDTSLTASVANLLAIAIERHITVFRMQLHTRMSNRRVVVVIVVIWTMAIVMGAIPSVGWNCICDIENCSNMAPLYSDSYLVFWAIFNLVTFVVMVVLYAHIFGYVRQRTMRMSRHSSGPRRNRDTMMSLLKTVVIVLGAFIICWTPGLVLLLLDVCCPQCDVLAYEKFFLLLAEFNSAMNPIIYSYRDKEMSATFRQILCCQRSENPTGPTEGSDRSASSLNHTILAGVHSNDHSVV
UniProt Q13572, sequence (whole entry, looked up): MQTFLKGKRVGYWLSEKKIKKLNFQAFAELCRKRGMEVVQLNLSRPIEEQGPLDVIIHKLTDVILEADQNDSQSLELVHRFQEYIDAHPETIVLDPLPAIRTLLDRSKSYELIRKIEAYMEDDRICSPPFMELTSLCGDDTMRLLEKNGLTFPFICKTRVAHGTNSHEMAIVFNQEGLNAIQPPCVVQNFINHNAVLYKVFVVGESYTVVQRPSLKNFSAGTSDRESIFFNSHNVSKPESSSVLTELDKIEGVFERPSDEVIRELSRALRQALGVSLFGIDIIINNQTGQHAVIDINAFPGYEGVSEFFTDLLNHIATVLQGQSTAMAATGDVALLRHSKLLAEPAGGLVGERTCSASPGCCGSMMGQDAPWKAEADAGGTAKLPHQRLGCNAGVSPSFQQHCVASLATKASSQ
UniProt Q96SW2, sequence (whole entry, looked up): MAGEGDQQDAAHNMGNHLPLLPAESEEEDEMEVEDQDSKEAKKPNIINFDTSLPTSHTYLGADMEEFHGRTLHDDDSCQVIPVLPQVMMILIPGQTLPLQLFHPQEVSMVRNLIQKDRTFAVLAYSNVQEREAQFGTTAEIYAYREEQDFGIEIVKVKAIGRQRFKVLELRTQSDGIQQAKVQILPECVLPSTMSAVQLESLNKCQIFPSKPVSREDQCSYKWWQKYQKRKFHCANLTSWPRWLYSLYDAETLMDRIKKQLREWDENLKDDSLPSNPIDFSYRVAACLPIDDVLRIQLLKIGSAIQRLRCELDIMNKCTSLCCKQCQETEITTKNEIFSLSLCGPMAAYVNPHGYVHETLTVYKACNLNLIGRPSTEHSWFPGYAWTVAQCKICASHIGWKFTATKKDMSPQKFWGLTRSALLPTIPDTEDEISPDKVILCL
UniProt O35433, sequence (whole entry, unmodified, looked up): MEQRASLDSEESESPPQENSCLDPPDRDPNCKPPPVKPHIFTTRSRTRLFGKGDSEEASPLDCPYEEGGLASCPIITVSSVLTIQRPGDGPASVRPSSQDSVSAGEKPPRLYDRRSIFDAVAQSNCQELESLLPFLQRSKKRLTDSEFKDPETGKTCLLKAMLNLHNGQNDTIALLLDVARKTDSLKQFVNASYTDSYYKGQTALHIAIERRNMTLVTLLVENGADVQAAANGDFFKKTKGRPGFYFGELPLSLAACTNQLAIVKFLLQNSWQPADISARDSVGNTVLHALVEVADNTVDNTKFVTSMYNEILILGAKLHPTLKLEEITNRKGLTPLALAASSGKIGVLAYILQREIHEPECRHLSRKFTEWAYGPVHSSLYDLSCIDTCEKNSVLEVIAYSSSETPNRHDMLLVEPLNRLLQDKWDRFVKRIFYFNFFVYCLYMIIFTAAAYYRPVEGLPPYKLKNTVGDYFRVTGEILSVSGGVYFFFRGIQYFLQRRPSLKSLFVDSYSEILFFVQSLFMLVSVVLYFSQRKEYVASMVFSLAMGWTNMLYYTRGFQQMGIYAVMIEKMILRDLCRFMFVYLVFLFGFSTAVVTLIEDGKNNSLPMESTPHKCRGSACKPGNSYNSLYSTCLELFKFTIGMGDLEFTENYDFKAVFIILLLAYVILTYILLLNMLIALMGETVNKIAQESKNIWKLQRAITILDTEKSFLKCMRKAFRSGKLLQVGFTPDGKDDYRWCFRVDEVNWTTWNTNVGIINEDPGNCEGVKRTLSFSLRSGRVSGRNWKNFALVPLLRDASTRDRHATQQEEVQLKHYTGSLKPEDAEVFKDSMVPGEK
UniProt Q00765, sequence (whole entry, looked up): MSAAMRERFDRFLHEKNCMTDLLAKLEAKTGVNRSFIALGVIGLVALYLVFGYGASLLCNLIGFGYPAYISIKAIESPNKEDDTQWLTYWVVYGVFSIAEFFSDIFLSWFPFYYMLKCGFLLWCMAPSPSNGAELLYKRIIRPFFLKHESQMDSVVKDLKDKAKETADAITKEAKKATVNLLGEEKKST
UniProt Q15910, sequence (whole entry, looked up): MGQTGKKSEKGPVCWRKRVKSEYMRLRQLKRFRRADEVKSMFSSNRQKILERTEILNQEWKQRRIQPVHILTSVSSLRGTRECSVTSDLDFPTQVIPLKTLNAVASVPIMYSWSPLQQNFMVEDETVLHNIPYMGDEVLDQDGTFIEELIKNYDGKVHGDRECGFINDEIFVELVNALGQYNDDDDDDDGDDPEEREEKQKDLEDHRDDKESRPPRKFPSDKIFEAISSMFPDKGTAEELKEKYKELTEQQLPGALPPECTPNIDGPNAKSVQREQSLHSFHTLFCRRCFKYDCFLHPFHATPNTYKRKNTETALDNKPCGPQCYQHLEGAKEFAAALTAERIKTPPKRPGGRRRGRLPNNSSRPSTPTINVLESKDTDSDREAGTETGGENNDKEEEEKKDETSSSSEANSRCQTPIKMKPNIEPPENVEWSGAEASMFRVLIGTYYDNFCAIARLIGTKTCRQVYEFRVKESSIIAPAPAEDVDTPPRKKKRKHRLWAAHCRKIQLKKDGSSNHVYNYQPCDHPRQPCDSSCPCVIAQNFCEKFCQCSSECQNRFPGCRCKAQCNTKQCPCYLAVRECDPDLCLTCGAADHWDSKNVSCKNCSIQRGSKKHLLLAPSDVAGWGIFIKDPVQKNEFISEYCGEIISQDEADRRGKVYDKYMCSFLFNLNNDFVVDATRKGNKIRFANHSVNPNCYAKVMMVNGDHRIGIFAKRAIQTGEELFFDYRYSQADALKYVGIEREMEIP
UniProt P02754, sequence (whole entry, unmodified, looked up): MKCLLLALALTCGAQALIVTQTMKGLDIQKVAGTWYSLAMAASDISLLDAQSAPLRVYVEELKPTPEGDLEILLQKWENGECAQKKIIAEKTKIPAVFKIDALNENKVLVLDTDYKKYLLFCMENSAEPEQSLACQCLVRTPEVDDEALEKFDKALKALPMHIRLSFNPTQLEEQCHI

| SMILES | target | test | system | conditions | scale | measurement | value |
| --- | --- | --- | --- | --- | --- | --- | --- |
| CSc1cc(C)[nH]c(=O)c1CNC(=O)c1c(C)n(C(C)C2CCC(NC3(C)COC3)CC2)c2ccccc12 (stereo not shown) | Histone-lysine N-methyltransferase EZH2 (EZH2, Homo sapiens, UniProt Q15910) | binding, TR-FRET |  |  |  | residence time | 2760 min |
| C/C1=C\CC/C(C)=C/CC(C)(C)/C=C/C1 | Transient receptor potential cation channel subfamily V member 1 (Trpv1, Rattus norvegicus, UniProt O35433, S512A/T550A/Y511A) | inhibitor, outside-out patch clamp |  | 100 µM, 5 min, vanilloid-site triple mutant, added: pH 5.5 activation |  | remaining current fraction | 0.07 ± 0.02 |
| N=C(N)NCCS(=O)(=O)O | Sodium- and chloride-dependent taurine transporter (SLC6A6, Homo sapiens, UniProt P31641, G62A) | binding, microscale thermophoresis |  | 15.6 µM, room temperature, added: 50 nM labelled protein | higher = more binding | normalised MST signal | 0.00605 |
| CN(C)c1ccc(-n2cc(COC(=O)[C@]3(C)C=C(C(=O)OC(C)(C)C)C(=O)CC3)nn2)cc1 | Mitogen-activated protein kinase 8 (MAPK8, Homo sapiens, UniProt P45983) | D-peptide binding, inhibitor, FP peptide displacement |  | 3.125 µM | lower is stronger displacement | fraction bound | 0.912 |
| NCc1cc2c(cc1F)C(=O)N(C1CCC(=O)NC1=O)C2 (stereo not shown) | GSPT1/CRBN (Homo sapiens, UniProt P15170+Q96SW2) | degrader, Western blot | Hep3B | 6 h |  | Dmax | 94% |
| CCCCCC=CC=C1C(=O)C=CC1CC=CCCCC(=O)O (stereo not shown) | REEP5 (Homo sapiens, UniProt Q00765) | competitive isoTOP-ABPP | proteome, soluble, MDA-MB-231 | 100 µM, 60 min, added: iodoacetamide probe | baseline: DMSO over compound-treated, higher = stronger cysteine blockade | isoTOP-ABPP competition ratio | 5.1 |
| C=C1CC2(C(=O)OC)C=C(C(=O)OC(C)(C)C)C(=O)C1C2 (stereo not shown) | Mitogen-activated protein kinase 8, with MKK7 (MAPK8, Homo sapiens, UniProt P45983) | protein-protein interaction, NanoBiT, refers to: MKK7-JNK1 binding | HEK293T | 10 µM | baseline: DMSO control | luminescence relative to control | 0.611 |
| CCCCCCCC/C=C\CCCCCCCC(=O)OCC(O)COP(=O)(O)O (stereo not shown) | Lysophosphatidic acid receptor 1 (LPAR1, Homo sapiens, UniProt Q92633, W210A) | Gi activation, agonist, NanoBiT G-protein dissociation | HEK293T | W210A mutant, unit not given | baseline: wild type | change in Emax | 0.704 |
| COc1cc(C2C(NC(=O)c3ccc(NC(=O)OC(C)(C)C)cc3)(C(=O)O)C(c3ccc(OC(=O)c4cccs4)c(OC)c3)C2(NC(=O)c2ccc(NC(=O)OC(C)(C)C)cc2)C(=O)O)ccc1OC(=O)c1cccs1 (stereo not shown) | Glucagon-like peptide 1 receptor (GLP1R, Homo sapiens, UniProt P43220, C226A) | cAMP accumulation, agonist |  | receptor mutant | baseline: wild type | Emax | 3.73 ± 2.46% |
| CN(Cc1cc(C2CC2)on1)C(=O)c1cccc(-c2ccc3c(c2)CCO3)c1 | acetoacetyl-CoA synthetase (Cryptococcus neoformans) | enzyme activity, inhibitor |  | 125 µM |  | remaining activity | 85.2% |
| O=P(O)(O)O[C@@H]1[C@@H](OP(=O)(O)O)[C@H](OP(=O)(O)O)[C@H](O)[C@H](OP(=O)(O)O)[C@H]1OP(=O)(O)O | Inositol-tetrakisphosphate 1-kinase (Homo sapiens, UniProt Q13572) | enzyme activity, substrate |  |  |  | Km | 2.1 µM |
| O=C(O)[C@@H]1O[C@@H](O[C@H]2[C@H](O)[C@H](O)[C@H](O[C@H]3[C@H](O)[C@H](O)[C@H](O[C@H]4[C@H](O)[C@H](O)[C@H](O)O[C@H]4C(=O)O)O[C@H]3C(=O)O)O[C@H]2C(=O)O)[C@@H](O)[C@@H](O)[C@@H]1O | Beta-lactoglobulin (LGB, Bos taurus, UniProt P02754, A134V/G80D) | isothermal titration calorimetry |  | concentration not given, pH 2.65, 37 °C, 50 mM KH2PO4 | ligand per protein | binding stoichiometry | 4.8 |
| Cc1ccccc1O[C@@H]1O[C@H](CO)[C@H](O)[C@H](O)[C@H]1O | Adhesin FmlH, lectin domain (Escherichia coli, UniProt Q1RBS0) | binding to desialylated bovine submaxillary mucin, inhibitor, ELISA competition | UPEC UTI89 | 1 µM |  | inhibition | 1.8 ± 5.7% |

Repeated from above:
| SMILES | target | test | system | conditions | scale | measurement | value |
| --- | --- | --- | --- | --- | --- | --- | --- |
| C=C1CC2(C(=O)OC)C=C(C(=O)OC(C)(C)C)C(=O)C1C2 (stereo not shown) | Mitogen-activated protein kinase 8, with MKK7 (MAPK8, Homo sapiens, UniProt P45983) | protein-protein interaction, NanoBiT, refers to: MKK7-JNK1 binding | HEK293T | 10 µM | baseline: DMSO control | luminescence relative to control | 0.611 |
